Published values gathered from unrelated publications.

Compound | test | test system | conditions | quantity | result
CC#CC(=O)N[C@H]1CCCN(c2c(F)cc(C(N)=O)c3[nH]c(C)c(C)c23)C1 | – | healthy volunteers | oral, 1 mg single dose, SAD phase I | adverse events | 83.3%
CC(=O)O[C@H]1C(=O)[C@@]2(C)[C@H]([C@H](OC(=O)c3ccccc3)[C@]3(O)C[C@H](OC(=O)[C@H](O)[C@@H](NC(=O)c4ccccc4)c4ccccc4)C(C)=C1C3(C)C)[C@]1(OC(C)=O)CO[C@@H]1C[C@@H]2O | refers to: decreased appetite | patients with advanced solid tumours | intravenous, dose not given, phase Ib, related to compound | adverse events, all grades | 31%
C[C@H]1CNCCCN1S(=O)(=O)c1cccc2cncc(F)c12 | refers to: Eczema | healthy adult men | topical ocular, 1 drop per eye twice daily, 8 days | adverse events | 5.6%
CC(C)C[C@H](NC(=O)CNC(=O)c1cc(Cl)ccc1Cl)B(O)O | – | newly diagnosed multiple myeloma patients | oral, dose not given, Nausea, maintenance | adverse events all grades | 39%
Cc1cc(Nc2ccc(S(F)(F)(F)(F)F)cc2)n2nc(C(C)(F)F)nc2n1 | – | Plasmodium vivax malaria patients | oral, 800 mg | adverse event Chills | 0%
O=C1CCc2ccc(OCCCCN3CCN(c4cccc(Cl)c4Cl)CC3)cc2N1 | refers to: Rigidity | genotyped patients, CYP2D6 poor metabolizers | dose not given, long-acting oral or depot | adverse event incidence | 11%
CCO[C@H]1CCN(Cc2c(OC)cc(C)c3[nH]ccc23)[C@H](c2ccc(C(=O)O)cc2)C1 | refers to: dry throat | PNH patients with active haemolysis | oral, 100 mg, extension phase | adverse event incidence | 0%
Cc1cc(C)c(CNC(=O)c2cc(Cl)c3c(c2C)O[C@@](C)([C@H]2CC[C@H](N(C)C)CC2)O3)c(=O)[nH]1 | – | relapsed/refractory NHL patients | oral, 200 mg once daily, onset after cycle 1 day 1 | adverse event Hypertension | 20.8%
Cc1nc(-c2ccc(OCC(C)C)c(C#N)c2)sc1C(=O)O | – | healthy Chinese subjects | oral, 40 mg | adverse drug reaction incidence | 12.8%
C=CC(=O)N1CCC(c2ccc(C(N)=O)c(-c3ccc(Oc4ccccc4)cc3)n2)CC1 | – | relapsed/refractory mantle cell lymphoma patients | oral, 150 mg once daily, part, CTCAE v4.03 | adverse event rate | 68.8%
C=CC[C@@H]1/C=C(\C)C[C@H](C)C[C@H](OC)[C@H]2O[C@@](O)(C(=O)C(=O)N3CCCC[C@H]3C(=O)O[C@H](/C(C)=C/[C@@H]3CC[C@@H](O)[C@H](OC)C3)[C@H](C)[C@@H](O)CC1=O)[C@H](C)C[C@@H]2OC | refers to: high blood pressure | kidney transplant recipients | oral, dose not given | adverse drug reactions | 22%
CC(=O)N(C)[C@H]1CCN(C(=O)c2cnc3c(c2)C[C@](C)(c2ccc(F)cc2)N3)C1 | refers to: Sleeplessness | human | oral, 15 mg once daily | adverse event duration | 4 days

Excerpt of the above:
Compound | test | test system | conditions | quantity | result
Cc1cc(C)c(CNC(=O)c2cc(Cl)c3c(c2C)O[C@@](C)([C@H]2CC[C@H](N(C)C)CC2)O3)c(=O)[nH]1 | – | relapsed/refractory NHL patients | oral, 200 mg once daily, onset after cycle 1 day 1 | adverse event Hypertension | 20.8%
Cc1nc(-c2ccc(OCC(C)C)c(C#N)c2)sc1C(=O)O | – | healthy Chinese subjects | oral, 40 mg | adverse drug reaction incidence | 12.8%
